Assay results pooled from the literature.
Each line is one published result; not all experiments were run side by side. In brackets after ≈: the same amount, converted by molar mass.
Sequence of UniProt P00519 (whole entry, unmodified, looked up): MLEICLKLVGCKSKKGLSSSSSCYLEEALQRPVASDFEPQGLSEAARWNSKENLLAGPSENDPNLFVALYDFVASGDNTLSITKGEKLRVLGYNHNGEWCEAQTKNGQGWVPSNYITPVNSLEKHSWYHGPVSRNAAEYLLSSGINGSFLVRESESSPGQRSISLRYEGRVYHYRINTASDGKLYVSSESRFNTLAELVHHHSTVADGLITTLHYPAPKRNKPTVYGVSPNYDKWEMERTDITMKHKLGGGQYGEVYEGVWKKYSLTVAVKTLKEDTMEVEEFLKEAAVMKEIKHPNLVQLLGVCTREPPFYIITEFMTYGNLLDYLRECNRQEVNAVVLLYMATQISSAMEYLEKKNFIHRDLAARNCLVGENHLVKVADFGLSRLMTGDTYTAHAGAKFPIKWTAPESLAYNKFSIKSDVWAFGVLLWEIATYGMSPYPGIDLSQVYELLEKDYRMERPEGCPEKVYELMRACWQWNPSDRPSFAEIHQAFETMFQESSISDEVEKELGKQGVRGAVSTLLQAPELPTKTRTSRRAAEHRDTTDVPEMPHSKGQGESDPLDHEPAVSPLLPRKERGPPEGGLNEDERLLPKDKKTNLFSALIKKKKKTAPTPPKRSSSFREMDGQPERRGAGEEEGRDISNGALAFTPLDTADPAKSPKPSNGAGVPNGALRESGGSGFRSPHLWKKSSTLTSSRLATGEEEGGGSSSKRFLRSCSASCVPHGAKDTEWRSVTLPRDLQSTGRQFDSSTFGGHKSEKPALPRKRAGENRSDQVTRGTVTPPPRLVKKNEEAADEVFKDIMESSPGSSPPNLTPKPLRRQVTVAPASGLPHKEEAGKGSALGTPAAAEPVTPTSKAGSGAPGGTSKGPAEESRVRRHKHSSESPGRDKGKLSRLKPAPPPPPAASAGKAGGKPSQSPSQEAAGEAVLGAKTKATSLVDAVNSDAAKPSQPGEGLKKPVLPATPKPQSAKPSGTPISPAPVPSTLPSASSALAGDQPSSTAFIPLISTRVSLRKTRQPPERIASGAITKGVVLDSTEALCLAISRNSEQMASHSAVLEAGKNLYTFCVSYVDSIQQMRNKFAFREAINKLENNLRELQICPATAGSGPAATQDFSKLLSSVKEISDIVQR

SMILES | target or system | test | test system | setting | quantity | value
CCCCCCCCNC(=O)Nc1ccc(Oc2ccnc(C(=O)NC)c2)cc1 | Staphylococcus aureus | microbial growth | NCTC8325 |  | MIC | > 100 µM
Cc1ccc(Oc2ccc(NC(=O)CNc3ccccc3N3CCOC3=O)cc2)cc1 | Plasmodium falciparum | parasite growth | 3D7 | 72 h, blood stage | EC50 | 958 nM
CC(=O)OC[C@@]1(C)[C@H]2CC[C@@H]3CN(Cc4ccc(F)cc4)[C@@H](C4=CCOC4=O)C[C@H]3[C@]2(C)CC[C@H]1OC(C)=O | unidentified human coronavirus | cytopathic effect | MRC5 | 25 µM, 72 h | inhibition | 84.7%
COc1cc(C#CC(=O)c2ccc(Cl)cc2)ccc1O | Pseudomonas aeruginosa | microbial growth, absorbance |  | 10 µM, 24 h | activity vs control | 101%
O=C(O)CCc1ccccc1 | Cryptosporidium parvum | parasite growth, imaging | HCT-8 | 1 mM, 24 h, intracellular | activity vs control | 74.7%
Cc1cccc(C(=O)C#Cc2ccc(F)c(F)c2)c1 | Pseudomonas aeruginosa | microbial growth, absorbance |  | 10 µM, 24 h | activity vs control | 103%
CC(=O)NC[C@H]1CN(c2ccc(N3CCOCC3)c(F)c2)C(=O)O1 | Streptococcus pneumoniae | microbial growth |  | clinical isolate | MIC90 | 2 µg/mL (≈ 5.93 µM)
CCC1=C[C@@H]2CN(C1)Cc1c([nH]c3ccccc13)[C@@](C(=O)OC)(c1cc3c(cc1OC)N(C)[C@H]1[C@@](O)(C(=O)OC)[C@H](OC(C)=O)[C@]4(CC)C=CCN5CC[C@]31[C@@H]54)C2 | Staphylococcus aureus | microbial growth | NCTC8325 |  | MIC | > 30 µM
CO[C@H]1/C=C/O[C@@]2(C)Oc3c(C)c(O)c4c(c3C2=O)C2=NC3(CCN(CC(C)C)CC3)NC2=C(NC(=O)/C(C)=C\C=C\[C@H](C)[C@H](O)[C@@H](C)[C@@H](O)[C@@H](C)[C@H](OC(C)=O)[C@@H]1C)C4=O | Trypanosoma cruzi | parasite growth, absorbance | Vero, TULAHUEN | 96 h, intracellular, amastigote | IC50 | 7320 nM
O=C(Nc1ccccc1)Nc1ccc(Oc2nnc(-c3ccc(Cl)cc3)c3ccccc23)cc1 | MCF7 | cell growth or viability, MTT |  | 0.312 µM | cell death | 88.7%
C=CC(=O)N1CCC(COCC(=O)N2CCN(c3nc(-c4cnc(N)nc4C(F)F)nc(N4CCOC[C@@H]4C)n3)CC2)CC1 | Tyrosine-protein kinase ABL1, phosphorylated (ABL1, Homo sapiens, UniProt P00519, E255K) | binding, competition with immobilised ligand |  | 1 µM | remaining binding | 100%
CNc1ncc2c(/C=C/C(=O)N3CCC(OC)CC3)nn(Cc3cccc(C(F)(F)F)c3)c2n1 | Tyrosine-protein kinase SYK (SYK, Homo sapiens, UniProt P43405) | enzyme activity, inhibitor, radiometric |  | 1 µM | remaining activity | 100%
O=C(NC[C@H](O)CO)c1ccncc1Nc1ccc(I)cc1F | Staphylococcus aureus | microbial growth | NCTC8325 |  | MIC | > 30 µM
Cc1ccc(N(C)c2ccc(NC(=O)CN(C)c3ccccc3N3CCCC3=O)cc2)cn1 | Plasmodium falciparum | parasite growth | 3D7 | 72 h, blood stage | EC50 | 543 nM
S=C(NCc1ccc2c(c1)OCO2)N1CCN(c2ncnc3c2oc2ccccc23)CC1 | Staphylococcus aureus | microbial growth | NCTC8325 |  | MIC | > 30 µM
CCCN(O)N=Nc1ccc(S(=O)(=O)Nc2nccs2)cc1 |  | ABTS scavenging |  | 120 µg/mL | inhibition | 49.8%
Cc1ccccc1Oc1ccc(NC(=O)CNc2ccccc2N2CCCC2=O)cc1 | Plasmodium falciparum | parasite growth | 3D7 | 72 h, blood stage | EC50 | > 10000 nM
COC(=O)Nc1nc2cc(C(=O)c3ccc(F)cc3)ccc2[nH]1 | Cryptococcus neoformans | microbial growth, broth dilution |  | 72 h, clinical isolate | IC90 | 5000 nM
CN(Cc1ccc(C(C)(C)C)cc1)Cc1cccc2ccccc12 | Trichophyton rubrum | microbial growth, disc diffusion | ATCC28188 | 0.016 µg/mL, 6 days | inhibition zone | ≥ 55 mm
CC(C)N(c1ccc(C#N)cc1)c1ccc(NC(=O)CN(C)c2ccccc2N2CCCC2=O)cn1 | Plasmodium falciparum | parasite growth | 3D7 | 72 h, blood stage | EC50 | 7 nM
O=C(C#Cc1ccc(F)c(F)c1)c1cccc(Cl)c1 | Pseudomonas aeruginosa | microbial growth, absorbance |  | 100 µM, 24 h | activity vs control | 96%
CC[C@H](N)C(=O)O | Cryptosporidium parvum | parasite growth, imaging | HCT-8 | 1 mM, 24 h, intracellular | activity vs control | 101%
CC(C)CN(C[C@@H](O)[C@H](Cc1ccccc1)NC(=O)O[C@H]1CO[C@H]2OCC[C@H]21)S(=O)(=O)c1ccc(N)cc1 | Human immunodeficiency virus 1 | viral replication |  |  | IC90 | 28.1 nM
O=C1O[C@H]([C@@H](O)CO)C(O)=C1O |  | ABTS scavenging |  | 30 µg/mL | inhibition | 27%

SMILES | target or system | test | test system | setting | quantity | value
CC(C)(C)Cn1c(N)nc2ccc(-c3[nH]c(C(C)(C)C)nc3-c3ccc(F)cc3)nc21 | Staphylococcus aureus | microbial growth | NCTC8325 |  | MIC | > 30 µM
Nc1ncnc2[nH]cnc12 | Cryptosporidium parvum | parasite growth, imaging | HCT-8 | 1 mM, 24 h, intracellular | activity vs control | 79.8%
CCCCN(c1ccc(C)cc1)c1ccc(NC(=O)CN(C)c2ccccc2N2CCCC2=O)cc1 | Plasmodium falciparum | parasite growth | 3D7 | 72 h, blood stage | EC50 | 35 nM
CCS(=O)(=O)Oc1ccc(C=NNC(=O)CSc2nc3ccc(Cl)cc3c(=O)n2-c2ccccc2)cc1 | Pseudomonas aeruginosa | microbial growth, well diffusion |  | 20 µg/mL | inhibition zone | 2 mm
CCC(C)N(c1ccc(C)cc1)c1ccc(NC(=O)CN(C)c2ccccc2N2CCCC2=O)cc1 (stereo not drawn) | Plasmodium falciparum | parasite growth | 3D7 | 72 h, blood stage | EC50 | 14 nM
O=C(Nc1ccc(C(=O)c2ccccc2)cc1)Nc1ccc(Cl)c(C(F)(F)F)c1 | Staphylococcus aureus | microbial growth | NCTC8325 | 24 h | MIC | 1 µM (≈ 0.419 µg/mL)
O=C(O)/C=C/C(=O)O | Cryptosporidium parvum | parasite growth, imaging | HCT-8 | 1 mM, 24 h, intracellular | activity vs control | 73.7%
COc1cc(-c2cncc3c2CN(C)Cc2cc(N4CCNCC4)ccc2-3)cc(OC)c1OC | Hepatocyte growth factor receptor (MET, Homo sapiens, UniProt P08581, Y1230D) | enzyme activity, inhibitor |  | 1 µM | remaining activity | 90%
Cc1ccc(Oc2ccc(NC(=O)CNc3ccccc3N3CCCC3=O)cc2)cc1 | Plasmodium falciparum | parasite growth | 3D7 | 72 h, blood stage | EC50 | 810 nM
O=C(O)Cc1c[nH]c2ccc(O)cc12 | Cryptosporidium parvum | parasite growth, imaging | HCT-8 | 1 mM, 24 h, intracellular | activity vs control | 101%
OC(c1cc(C(F)(F)F)nc2c(C(F)(F)F)cccc12)C1CCCCN1 (stereo not drawn) | Plasmodium falciparum | parasite growth | 3D7 | 72 h, blood stage | EC50 | 24 nM
NCCCn1cc(C2=C(c3c[nH]c4ccccc34)C(=O)NC2=O)c2ccccc21 | Staphylococcus aureus | microbial growth | NCTC8325 |  | MIC | > 30 µM
CC(=NNC(=S)Nc1ccccc1)c1ccc(Nc2nnc(-c3ccc(Cl)cc3)c3ccccc23)cc1 | MCF7 | cell growth or viability, MTT |  | 0.312 µM | cell death | 0.177%
NCCS(=O)(=O)O | Cryptosporidium parvum | parasite growth, imaging | HCT-8 | 1 mM, 24 h, intracellular | activity vs control | 98%
COc1cc(C#CC(=O)c2ccccc2C)ccc1O | Pseudomonas aeruginosa | microbial growth, absorbance |  | 10 µM, 24 h | activity vs control | 97%
CN(Cc1ccc(C2(C(F)(F)F)CC2)cc1)Cc1cccc2ccccc12 | Trichophyton rubrum | microbial growth, disc diffusion | ATCC28188 | 0.002 µg/mL, 6 days | inhibition zone | 21.8 mm
Cc1ccccc1C(=O)C#Cc1ccc(F)c(F)c1 | Pseudomonas aeruginosa | microbial growth, absorbance |  | 100 µM, 24 h | activity vs control | 98%
C[N+](C)(C)CCCC(=O)O | Cryptosporidium parvum | parasite growth, imaging | HCT-8 | 1 mM, 24 h, intracellular | activity vs control | 103%
COc1cc(C#CC(=O)c2cccc(C)c2)ccc1O | Pseudomonas aeruginosa | microbial growth, absorbance |  | 100 µM, 24 h | activity vs control | 130%
C#Cc1cccc(Nc2ncnc3cc(OCCOC)c(OCCO)cc23)c1 | Staphylococcus aureus | microbial growth | NCTC8325 |  | MIC | > 30 µM
OC(C#Cc1ccc(F)c(F)c1)c1cccc(Cl)c1 (stereo not drawn) | Pseudomonas aeruginosa | microbial growth, absorbance |  | 100 µM, 24 h | activity vs control | 98%
CCS(=O)(=O)Oc1ccc(C=NNC(=O)CSc2nc3c(C)cccc3c(=O)n2-c2ccccc2)cc1OC | Pseudomonas aeruginosa | microbial growth, well diffusion |  | 20 µg/mL | inhibition zone | 3 mm
COc1cc(C#CC(O)c2ccccc2)ccc1O (stereo not drawn) | Pseudomonas aeruginosa | microbial growth, absorbance |  | 10 µM, 24 h | activity vs control | 93%
O=C(O)CCC(=O)O | Cryptosporidium parvum | parasite growth, imaging | HCT-8 | 1 mM, 24 h, intracellular | activity vs control | 116%

Repeated from above:
SMILES | target or system | test | test system | setting | quantity | value
NCCCn1cc(C2=C(c3c[nH]c4ccccc34)C(=O)NC2=O)c2ccccc21 | Staphylococcus aureus | microbial growth | NCTC8325 |  | MIC | > 30 µM
CC(=NNC(=S)Nc1ccccc1)c1ccc(Nc2nnc(-c3ccc(Cl)cc3)c3ccccc23)cc1 | MCF7 | cell growth or viability, MTT |  | 0.312 µM | cell death | 0.177%
NCCS(=O)(=O)O | Cryptosporidium parvum | parasite growth, imaging | HCT-8 | 1 mM, 24 h, intracellular | activity vs control | 98%
COc1cc(C#CC(=O)c2ccccc2C)ccc1O | Pseudomonas aeruginosa | microbial growth, absorbance |  | 10 µM, 24 h | activity vs control | 97%
